Assay results pooled from the literature.
Each numbered part is a random draw from the data of one study; scales do not carry over between parts. Values joined by “and” are separate records of one study, mostly repeats; a detail may differ.
UniProt P42680, sequence (whole entry, looked up): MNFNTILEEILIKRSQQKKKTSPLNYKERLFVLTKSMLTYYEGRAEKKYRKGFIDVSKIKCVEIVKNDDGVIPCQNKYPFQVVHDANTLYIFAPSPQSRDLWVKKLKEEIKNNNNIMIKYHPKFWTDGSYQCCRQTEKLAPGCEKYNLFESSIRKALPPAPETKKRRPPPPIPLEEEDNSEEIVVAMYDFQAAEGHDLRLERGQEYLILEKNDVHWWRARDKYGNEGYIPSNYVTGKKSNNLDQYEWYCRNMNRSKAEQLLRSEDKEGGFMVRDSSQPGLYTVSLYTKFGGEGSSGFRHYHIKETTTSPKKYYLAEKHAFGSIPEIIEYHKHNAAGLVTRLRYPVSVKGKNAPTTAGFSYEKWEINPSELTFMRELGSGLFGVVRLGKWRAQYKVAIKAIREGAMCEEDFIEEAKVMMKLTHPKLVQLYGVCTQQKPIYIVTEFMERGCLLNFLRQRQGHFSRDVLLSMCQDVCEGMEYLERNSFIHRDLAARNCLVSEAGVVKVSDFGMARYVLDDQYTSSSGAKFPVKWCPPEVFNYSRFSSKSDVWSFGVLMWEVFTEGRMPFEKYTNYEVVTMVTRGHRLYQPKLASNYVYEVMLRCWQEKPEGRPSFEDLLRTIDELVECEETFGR
UniProt P23458, sequence (whole entry, looked up): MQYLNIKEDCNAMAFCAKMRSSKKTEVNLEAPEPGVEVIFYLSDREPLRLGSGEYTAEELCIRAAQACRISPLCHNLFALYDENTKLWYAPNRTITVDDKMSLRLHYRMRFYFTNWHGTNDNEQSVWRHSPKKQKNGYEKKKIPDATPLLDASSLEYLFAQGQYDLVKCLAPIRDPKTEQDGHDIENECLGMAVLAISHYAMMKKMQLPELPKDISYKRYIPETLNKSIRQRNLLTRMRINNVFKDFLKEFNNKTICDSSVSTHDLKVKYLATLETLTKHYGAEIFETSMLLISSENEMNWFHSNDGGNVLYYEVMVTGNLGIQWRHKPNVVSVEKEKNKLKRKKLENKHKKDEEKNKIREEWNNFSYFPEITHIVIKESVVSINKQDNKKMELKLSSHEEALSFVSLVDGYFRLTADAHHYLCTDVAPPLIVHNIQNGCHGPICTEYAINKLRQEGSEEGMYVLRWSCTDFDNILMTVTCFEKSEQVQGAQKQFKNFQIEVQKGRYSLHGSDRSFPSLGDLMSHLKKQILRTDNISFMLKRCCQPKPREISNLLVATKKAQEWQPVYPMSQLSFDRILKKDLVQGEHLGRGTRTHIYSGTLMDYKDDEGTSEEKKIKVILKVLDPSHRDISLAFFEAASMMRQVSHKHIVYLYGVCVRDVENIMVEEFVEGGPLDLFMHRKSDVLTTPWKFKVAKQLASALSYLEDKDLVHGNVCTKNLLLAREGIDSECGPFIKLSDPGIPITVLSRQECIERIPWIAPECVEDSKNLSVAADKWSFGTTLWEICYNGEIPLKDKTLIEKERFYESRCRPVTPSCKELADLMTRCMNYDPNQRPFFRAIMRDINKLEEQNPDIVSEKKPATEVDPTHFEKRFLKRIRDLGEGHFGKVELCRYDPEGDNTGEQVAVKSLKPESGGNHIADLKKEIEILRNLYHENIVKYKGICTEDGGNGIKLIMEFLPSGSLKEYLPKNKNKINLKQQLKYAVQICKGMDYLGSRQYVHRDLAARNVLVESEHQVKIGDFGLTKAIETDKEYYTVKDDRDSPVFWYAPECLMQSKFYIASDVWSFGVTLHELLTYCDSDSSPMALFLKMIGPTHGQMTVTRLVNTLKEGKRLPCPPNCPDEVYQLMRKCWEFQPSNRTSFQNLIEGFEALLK
UniProt Q9HBY8, sequence (whole entry, looked up): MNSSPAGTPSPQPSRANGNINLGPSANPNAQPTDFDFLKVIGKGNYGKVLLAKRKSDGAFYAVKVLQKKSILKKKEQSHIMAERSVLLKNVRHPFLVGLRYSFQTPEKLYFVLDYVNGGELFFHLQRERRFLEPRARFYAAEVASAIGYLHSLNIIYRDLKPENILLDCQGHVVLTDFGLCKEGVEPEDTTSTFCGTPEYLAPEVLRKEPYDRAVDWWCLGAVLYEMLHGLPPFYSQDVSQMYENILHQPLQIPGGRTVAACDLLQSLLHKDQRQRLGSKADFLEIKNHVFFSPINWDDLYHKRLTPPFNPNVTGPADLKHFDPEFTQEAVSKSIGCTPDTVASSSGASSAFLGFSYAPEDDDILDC
UniProt P49761, sequence (whole entry, looked up): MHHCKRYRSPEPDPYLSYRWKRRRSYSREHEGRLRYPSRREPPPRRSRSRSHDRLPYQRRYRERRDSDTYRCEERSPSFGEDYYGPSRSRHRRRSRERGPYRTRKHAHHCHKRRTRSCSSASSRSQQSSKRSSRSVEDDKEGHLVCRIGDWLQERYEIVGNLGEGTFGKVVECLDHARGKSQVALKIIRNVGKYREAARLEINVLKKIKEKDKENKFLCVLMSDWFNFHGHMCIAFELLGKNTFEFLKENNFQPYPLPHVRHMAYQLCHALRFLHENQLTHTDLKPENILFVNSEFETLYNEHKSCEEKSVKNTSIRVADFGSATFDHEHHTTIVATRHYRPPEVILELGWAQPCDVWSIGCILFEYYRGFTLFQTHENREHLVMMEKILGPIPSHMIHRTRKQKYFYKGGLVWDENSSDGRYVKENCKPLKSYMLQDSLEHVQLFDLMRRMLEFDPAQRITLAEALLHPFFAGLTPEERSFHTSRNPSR
UniProt P08913, sequence (whole entry, looked up): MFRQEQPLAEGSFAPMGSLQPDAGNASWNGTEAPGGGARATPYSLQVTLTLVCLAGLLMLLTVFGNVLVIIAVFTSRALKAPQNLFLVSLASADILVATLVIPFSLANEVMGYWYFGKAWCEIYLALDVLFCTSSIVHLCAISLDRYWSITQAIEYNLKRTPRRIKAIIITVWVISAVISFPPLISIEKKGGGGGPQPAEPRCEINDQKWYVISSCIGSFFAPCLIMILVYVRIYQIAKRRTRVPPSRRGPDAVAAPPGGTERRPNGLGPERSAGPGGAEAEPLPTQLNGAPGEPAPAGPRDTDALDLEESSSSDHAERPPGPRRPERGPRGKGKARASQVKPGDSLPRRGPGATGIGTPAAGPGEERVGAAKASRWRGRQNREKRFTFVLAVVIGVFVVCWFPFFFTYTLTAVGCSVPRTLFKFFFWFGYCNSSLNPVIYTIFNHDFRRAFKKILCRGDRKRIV
UniProt Q14012, sequence (whole entry, looked up): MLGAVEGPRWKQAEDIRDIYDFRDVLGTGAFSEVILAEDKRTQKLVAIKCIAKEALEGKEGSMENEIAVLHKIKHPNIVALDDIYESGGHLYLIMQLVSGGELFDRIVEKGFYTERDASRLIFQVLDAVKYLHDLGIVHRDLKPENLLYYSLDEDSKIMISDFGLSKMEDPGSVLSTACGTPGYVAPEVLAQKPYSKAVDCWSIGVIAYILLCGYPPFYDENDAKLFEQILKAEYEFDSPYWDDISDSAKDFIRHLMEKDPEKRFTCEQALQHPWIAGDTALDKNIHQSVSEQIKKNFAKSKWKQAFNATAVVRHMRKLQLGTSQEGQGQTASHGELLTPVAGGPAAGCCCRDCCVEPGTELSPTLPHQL
UniProt P08069, sequence (whole entry, looked up): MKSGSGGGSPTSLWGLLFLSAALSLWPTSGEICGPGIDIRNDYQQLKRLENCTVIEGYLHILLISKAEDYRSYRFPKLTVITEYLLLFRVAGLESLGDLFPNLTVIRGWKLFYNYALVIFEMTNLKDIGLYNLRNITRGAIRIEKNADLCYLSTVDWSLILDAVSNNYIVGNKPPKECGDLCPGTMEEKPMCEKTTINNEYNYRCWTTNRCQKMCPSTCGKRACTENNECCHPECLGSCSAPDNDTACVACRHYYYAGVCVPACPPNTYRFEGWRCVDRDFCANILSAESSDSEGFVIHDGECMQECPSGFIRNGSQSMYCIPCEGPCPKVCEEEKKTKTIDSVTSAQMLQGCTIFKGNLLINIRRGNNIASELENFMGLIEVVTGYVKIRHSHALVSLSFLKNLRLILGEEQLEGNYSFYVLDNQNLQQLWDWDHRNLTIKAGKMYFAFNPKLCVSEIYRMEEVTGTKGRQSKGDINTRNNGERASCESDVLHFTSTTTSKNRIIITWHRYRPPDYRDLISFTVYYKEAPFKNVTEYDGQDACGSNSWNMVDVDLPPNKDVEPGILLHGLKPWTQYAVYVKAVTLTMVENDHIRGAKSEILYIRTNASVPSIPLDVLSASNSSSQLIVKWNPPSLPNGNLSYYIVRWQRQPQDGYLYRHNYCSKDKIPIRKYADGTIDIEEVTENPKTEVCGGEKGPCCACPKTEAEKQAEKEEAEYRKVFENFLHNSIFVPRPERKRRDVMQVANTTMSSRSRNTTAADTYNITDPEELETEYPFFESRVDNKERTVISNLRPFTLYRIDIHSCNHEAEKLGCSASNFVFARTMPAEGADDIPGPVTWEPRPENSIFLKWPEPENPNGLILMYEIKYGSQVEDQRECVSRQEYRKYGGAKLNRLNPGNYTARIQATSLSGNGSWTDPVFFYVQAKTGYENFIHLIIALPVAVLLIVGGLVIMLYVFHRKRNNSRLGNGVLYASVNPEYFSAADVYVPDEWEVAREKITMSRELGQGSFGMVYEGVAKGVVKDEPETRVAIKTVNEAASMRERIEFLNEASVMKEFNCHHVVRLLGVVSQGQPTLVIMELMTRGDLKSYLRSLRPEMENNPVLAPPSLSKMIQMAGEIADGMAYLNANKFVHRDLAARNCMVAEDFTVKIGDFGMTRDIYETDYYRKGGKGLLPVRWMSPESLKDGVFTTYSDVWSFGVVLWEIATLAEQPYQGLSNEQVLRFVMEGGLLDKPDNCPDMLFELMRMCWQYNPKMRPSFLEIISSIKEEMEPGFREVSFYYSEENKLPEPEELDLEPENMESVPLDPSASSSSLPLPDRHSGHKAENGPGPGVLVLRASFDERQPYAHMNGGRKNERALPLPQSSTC

Block 1
SMILES: Nc1nc(Nc2ccc(S(N)(=O)=O)cc2)nn1C(=O)c1c(F)cccc1F
Observed: enzyme activity
Mode: inhibitor
Concentration: 0.5 µM
Relative to: control
target	remaining activity [%]
Ribosomal protein S6 kinase alpha-3 (RPS6KA3, Homo sapiens, UniProt P51812)	38.6
Dual specificity protein kinase CLK1 (CLK1, Homo sapiens, UniProt P49759)	85.1
Tyrosine-protein kinase JAK1 (JAK1, Homo sapiens, UniProt P23458)	5.19
Casein kinase I isoform delta (CSNK1D, Homo sapiens, UniProt P48730)	94.5
Serine/threonine-protein kinase PAK 1 (PAK1, Homo sapiens, UniProt Q13153)	89.5
Vascular endothelial growth factor receptor 1 (FLT1, Homo sapiens, UniProt P17948)	90.7
Protein kinase C zeta type (PRKCZ, Homo sapiens, UniProt Q05513)	99.9
Tyrosine-protein kinase receptor TYRO3 (TYRO3, Homo sapiens, UniProt Q06418)	98.6
Cyclin-dependent kinase 2, with cyclin E (CDK2, Homo sapiens, UniProt P24941)	7.15
Dual specificity protein kinase CLK2 (CLK2, Homo sapiens, UniProt P49760)	71.5
Insulin-like growth factor 1 receptor (IGF1R, Homo sapiens, UniProt P08069)	86.9
Mitogen-activated protein kinase kinase kinase 20 (MAP3K20, Homo sapiens, UniProt Q9NYL2)	100
Calcium/calmodulin-dependent protein kinase type 1 (CAMK1, Homo sapiens, UniProt Q14012)	90.4
Ephrin type-A receptor 2 (EPHA2, Homo sapiens, UniProt P29317)	80.9
Serine/threonine-protein kinase SIK2 (SIK2, Homo sapiens, UniProt Q9H0K1)	84.1
Serine/threonine-protein kinase Sgk2 (SGK2, Homo sapiens, UniProt Q9HBY8)	106
Tyrosine-protein kinase Tec (TEC, Homo sapiens, UniProt P42680)	122

Block 2
Cell line: mouse MPNST tumor cells
Technique: high-content nuclear imaging
Measured: cell number
Concentration: 10 µM
Time: 12 h
Setting: mean of 2 replicates
Relative to: plate mean
Reading: higher = more cells
SMILES	nuclei count
CC(=O)OCC(=O)[C@@]1(O)CC[C@H]2[C@@H]3CCC4=CC(=O)C=C[C@]4(C)[C@@]3(F)[C@@H](O)C[C@@]21C	4.57 z-score
COCC(=O)O[C@]1(CCN(C)CCCc2nc3ccccc3[nH]2)CCc2cc(F)ccc2[C@@H]1C(C)C	-5.72 z-score
Cc1oc(-c2ccccc2)nc1CCOc1ccc(CC2SC(=O)NC2=O)c2sccc12 (stereo not shown)	-0.789 z-score
C=CC1=C(C(=O)O)N2C(=O)[C@@H](NC(=O)/C(=N\OCC(=O)O)c3csc(N)n3)[C@H]2SC1	-0.343 z-score
CC1=Nc2ccc(Cl)cc2S(=O)(=O)N1	1.4 z-score and 0.634 z-score and 1.27 z-score
COCCCC/C(=N\OCCN)c1ccc(C(F)(F)F)cc1	2.16 z-score
CC1(c2ccccc2)OC(C(=O)O)=CC1=O (stereo not shown)	0.729 z-score
Cc1cc(-n2c(=O)[nH]c(=O)n(C)c2=O)ccc1Oc1ccc(SC(F)(F)F)cc1	0.567 z-score
OC(CCN1CCCCC1)(c1ccccc1)c1ccccc1	1.84 z-score

Block 3
SMILES: Cc1nc(Nc2ncc(C(=O)Nc3c(C)cccc3Cl)s2)cc(N2CCN(CCO)CC2)n1
Mode: inhibitor
Concentration: 10 µM
target	inhibition
Misshapen-like kinase 1 (MINK1, Homo sapiens, UniProt Q8N4C8)	< 50%
Tyrosine-protein kinase Tec (TEC, Homo sapiens, UniProt P42680)	91%
Dual specificity protein kinase CLK3 (CLK3, Homo sapiens, UniProt P49761)	< 50%
Mitogen-activated protein kinase kinase kinase 4 (MAP3K4, Homo sapiens, UniProt Q9Y6R4)	98%
Cyclin-dependent kinase 9 (CDK9, Homo sapiens, UniProt P50750)	< 50%

Further values, each from its own experiment
Compound	tested on	assay	test system	conditions	how to read	measurement	result
O=C(NNS(=O)(=O)c1ccccc1)c1cc(-c2ccnnc2)ccc1F	Alpha-2A adrenergic receptor (ADRA2A, Homo sapiens, UniProt P08913)	binding, radioligand binding	–	–	–	Ki	> 10 µM
c1ccc(Oc2ccc(Nc3c4c(nc5ccccc35)CCC4)cc2)cc1	Leishmania infantum	qPCR	MHOM/BR/1972/BH46, golden hamster, chronic infection, liver	oral, 10 mg/kg/day, 10 days, with: glucantime 50 mg/kg/day i.p.	–	parasite load	42 amastigotes/g tissue and 50.8 amastigotes/g tissue and 45.5 amastigotes/g tissue and 484 amastigotes/g tissue and 56.8 amastigotes/g tissue and 40.8 amastigotes/g tissue
CN(C)C(=O)/C(C#N)=C/c1ccc(-c2nc3cnc4[nH]ccc4c3n2C2CCCCC2)o1	normal-adjacent epithelium patient-derived organoids sample E	CellTiter-Glo	–	0.1 µM	relative to: DMSO	viability	92.9% and 97.5%

A few entries again (block 3):
target	inhibition
Tyrosine-protein kinase Tec (TEC, Homo sapiens, UniProt P42680)	91%
Mitogen-activated protein kinase kinase kinase 4 (MAP3K4, Homo sapiens, UniProt Q9Y6R4)	98%
Dual specificity protein kinase CLK3 (CLK3, Homo sapiens, UniProt P49761)	< 50%
